Published values pooled from the literature.
Target: Tyrosine-protein kinase Blk (BLK, Homo sapiens, UniProt P51451)

test | conditions | scale | measurement | result | SMILES
enzyme activity, inhibitor | 1 µM |  | inhibition | 0% | Cc1cccc(O[C@H]2CCC[C@@H](C(C)CNCc3ccncc3)C2)c1 (relative stereo)
binding, competition with immobilised ligand | 1 µM |  | remaining binding | 2.3% | CCN1CCN(Cc2ccc(NC(=O)c3ccc(C)c(NC(=O)c4cncc(-c5cccs5)c4)c3)cc2C(F)(F)F)CC1
enzyme activity, inhibitor | 10 µM |  | inhibition | 12% | NC(=O)C[C@H]1CCc2sc3ncnc(O[C@H]4CC[C@H](N5CCOCC5)CC4)c3c21
kinase activity, inhibitor | 1 µM | relative to: untreated control | remaining activity | 115% | COc1c(OCCCN2CCOCC2)ccc2c1N=C(NC(=O)c1cnc(N)nc1)N1CCN=C21
enzyme activity, inhibitor | 0.1 µM |  | inhibition | 0% | CN1CCN(Cc2ccc(-c3ccc(CO[C@H]4CCC[C@@H]4NC(=O)c4cc(-c5cnn(C)c5)cnc4N)cc3)cc2)CC1
binding, competition with immobilised ligand | 1 µM |  | remaining binding | 100% | COc1cc(Nc2nccc(-c3cnn4nc(OC)ccc34)n2)cc(C(F)(F)F)c1
KINOMEscan | 1 µM | relative to: DMSO control | remaining binding | 100% | C=CC(=O)N1CCc2ccc(-n3c(=O)ccc4cnc5ccc(-c6cnn(C)c6)cc5c43)cc21
enzyme activity, inhibitor | 0.1 µM |  | inhibition | 29% | C=CC(=O)Nc1cccc(-c2cnc3[nH]cc(C(=O)NC(C)(C)C)c3n2)c1
cell-free assay, competition with immobilised ligand | 1 µM |  | remaining binding | 86% | C=CC(=O)N1CCCC(n2c(=O)c3ncccc3n(Cc3ccc(Oc4ccccc4)cc3)c2=O)C1 (stereo not shown)
binding, competition with immobilised ligand | 0.1 µM |  | remaining binding | 90% | Cc1cc(NC(=O)[C@H](O)c2cc(F)cc(F)c2)ccc1-c1cnc(N)c(C(=O)NC(C)C)c1
binding, competition with immobilised ligand | 1 µM |  | remaining binding | 0.25% | CNC(=O)C1CCN(c2cc(C)c(F)cc2NC(=O)c2ccc(-c3cc(O)ccc3C)c(C)c2)CC1
binding | 0.1 µM |  | remaining binding | 41% | Cc1cnc2nc1Nc1cccc(c1)COC/C=C/COCc1cc(ccc1OCCN1CCOCC1)N2
binding, competition with immobilised ligand | 3 µM |  | remaining binding | 56% | COc1c(Cl)cccc1Nc1c(-c2ccncc2C#C[C@@]2(C)CCCN2C(=O)/C=C/CN(C)C)[nH]c2c1C(=O)NCC2
enzyme activity, inhibitor | 10 µM |  | activity vs control | 117% | O=C(Cc1ccc(OCc2ccccc2)cc1)NC1(C(=O)O)CCN(C(=O)c2ccc(-c3cccc(Cl)c3)cc2)CC1
KinomeScan | 0.1 µM | relative to: untreated | remaining binding | 90% | CNC1C[S+]2CC[S+]3CC[S+](C1)[Ru-4]321([N]=C=S)[n]2c3ccc(OC)cc3c3c4c(c5cc(F)c[n+]1c5c32)C(=O)NC4=O (stereo not shown)
enzyme activity, inhibitor, FRET | 1 µM |  | inhibition | -2% | C[C@H]1CN(C(=O)c2cn(-c3ccnc(N)n3)c3cc(C#CC4(O)CCCCC4)ccc23)CCN1
